Assay results from different studies.
Protocols differ between the studies behind these lines. Numbers after ± are the reported error.
Sample: plasma

Cc1nc(-c2ccc(OCC(C)C)c(C#N)c2)sc1C(=O)O  half-life at steady state (human adults; oral, 10 to 160 mg once daily, fed, PopPK post hoc): 7.98 ± 0.97 h
COc1ccc(-c2ccc3c(N4CCOC[C@@H]4C)nc(N4CCOC[C@@H]4C)nc3n2)cc1CO  half-life at steady state (human; oral, 20 mg twice daily, oral solution): 1.7 h
CNC(=O)c1ccc(-c2cnc3ncc(Cc4ccc5ncccc5c4)n3n2)cc1F  half-life (mean) (human, normal hepatic function; oral, 200 mg single dose): 12 h
CCCC[C@H](NC(C)=O)C(=O)N[C@H]1CCC(=O)NC[C@@H](C(=O)N[C@@H](Cc2c[nH]c3ccccc23)C(N)=O)NC(=O)[C@H](CCCNC(=N)N)NC(=O)[C@@H](Cc2ccccc2)NC(=O)[C@H](Cc2c[nH]cn2)NC1=O  half-life (healthy human, both sexes; subcutaneous, 3.0 mg once daily, day 7, median): 11.4 h
CN(C)Cc1c(C(=O)NCCOc2ccc(C(=O)NO)cc2)oc2ccccc12  half-life (median) (human; oral, 40 mg, single dose on day -3): 2.56 h
CCCCC1(CCCC)CN(c2ccccc2)c2cc(SC)c(OCC(=O)N[C@@H](C(=O)NCC(=O)O)c3ccccc3)cc2S(=O)(=O)C1  half-life (LC-MS/MS; human; oral, 5 mg, single dose, before breakfast): 2.64 h
Cc1ccc(NC(=O)c2ccc(CN3CCN(C)CC3)cc2)cc1Nc1nccc(-c2cncc(-c3oncc3C)c2)n1  half-life (older healthy human adults; oral, 100 mg single dose, fed, mean): 32 h
CN(C)C/C=C/C(=O)Nc1cc2c(Nc3ccc(F)c(Cl)c3)ncnc2cc1O[C@H]1CCOC1  half-life at steady state (human; oral, 20 mg once daily, day 27, geometric mean): 48.4 h

Some of these lines once more:
Cc1nc(-c2ccc(OCC(C)C)c(C#N)c2)sc1C(=O)O  half-life at steady state (human adults; oral, 10 to 160 mg once daily, fed, PopPK post hoc): 7.98 ± 0.97 h
